Literature values that unrelated publications cite.
Compare with care: the assays were run in different laboratories. ± marks the error that the study gave.
Sequence of UniProt P21917 (whole entry, looked up): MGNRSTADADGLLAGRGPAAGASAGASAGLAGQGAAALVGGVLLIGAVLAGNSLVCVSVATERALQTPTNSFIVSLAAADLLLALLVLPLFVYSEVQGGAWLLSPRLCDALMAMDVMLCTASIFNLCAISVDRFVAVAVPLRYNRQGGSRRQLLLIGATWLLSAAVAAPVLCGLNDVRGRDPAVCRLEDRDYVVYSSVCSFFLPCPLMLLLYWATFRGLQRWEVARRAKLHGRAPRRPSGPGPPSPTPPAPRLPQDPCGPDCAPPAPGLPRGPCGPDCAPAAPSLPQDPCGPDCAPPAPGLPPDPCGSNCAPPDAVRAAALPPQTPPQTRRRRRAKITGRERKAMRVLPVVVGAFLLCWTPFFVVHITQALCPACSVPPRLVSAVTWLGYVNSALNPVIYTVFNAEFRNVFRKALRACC
Sequence of UniProt P21918 (whole entry, looked up): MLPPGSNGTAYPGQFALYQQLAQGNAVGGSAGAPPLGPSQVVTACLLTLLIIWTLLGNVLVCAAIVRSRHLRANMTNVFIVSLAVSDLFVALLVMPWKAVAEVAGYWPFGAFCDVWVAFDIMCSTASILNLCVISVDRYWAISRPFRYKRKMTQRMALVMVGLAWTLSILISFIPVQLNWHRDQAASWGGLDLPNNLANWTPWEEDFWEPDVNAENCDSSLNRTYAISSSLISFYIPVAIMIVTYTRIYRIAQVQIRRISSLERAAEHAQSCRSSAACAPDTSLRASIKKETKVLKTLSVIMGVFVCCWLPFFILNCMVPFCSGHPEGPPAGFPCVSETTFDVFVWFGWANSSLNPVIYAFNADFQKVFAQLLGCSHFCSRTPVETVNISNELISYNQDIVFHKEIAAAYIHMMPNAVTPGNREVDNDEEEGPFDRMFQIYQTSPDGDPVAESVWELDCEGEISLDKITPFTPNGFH

SMILES | target or system | test | test system | setting | endpoint | value
Cc1cc(CCCOc2c(C)cc(-c3noc(C(F)(F)F)n3)cc2C)on1 | Enterovirus | viral replication | clinical isolates | – | IC50 | ≤ 0.03 µM
Cn1c(=O)n(C)c2cc(CNCCNc3ccnc4cc(Cl)ccc34)ccc21 | Trypanosoma cruzi | – | Tulahuen C4 LacZ | – | IC50 | 16.9 µM
C#CCCCCCC(=O)N(C)[C@H](C(=O)N(C)[C@H](C(=O)N(C)[C@H](C(=O)N(C)[C@@H](C)C(=O)N(C)[C@@H](Cc1ccccc1)C(=O)O)C(C)C)C(C)C)C(C)C | Leishmania donovani | – | – | – | IC50 | > 14 µM
CCCCCCCCC[C@@]1(CO)CC[C@@H](C)C(=O)O1 | Chromobacterium violaceum | violacein production | – | quorum sensing | IC50 | 110 µM
O=c1[nH]c2c([N+](=O)[O-])cccc2cc1Br | Trypanosoma brucei brucei | – | nitroreductase overexpressing | trypomastigotes | IC50 | 3.9 ± 0.1 µM
C[N+]1=C2C=C(NCCc3ccc(O)cc3)C(=O)c3[nH]cc(c32)CC1 | Plasmodium falciparum | parasite growth | 3D7, chloroquine-sensitive | – | IC50 | < 0.05 µM
C=CCN(CC=C)CCc1c[nH]c2ccccc12 | D(4) dopamine receptor (DRD4, Homo sapiens, UniProt P21917) | binding | cloned human receptor | together with: [3H]N-methylspiperone | Ki | > 10 µM
C#CCCCCC(=O)N(C)[C@H](C(=O)N(C)[C@H](C(=O)N(C)[C@H](C(=O)N(C)[C@@H](C)C(=O)N(C)[C@@H](Cc1ccccc1)C(=O)O)C(C)C)C(C)C)C(C)C | Leishmania donovani | – | – | – | IC50 | 5.6 µM
C=CCN(CC=C)CCc1c[nH]c2ccc(OC)cc12 | D(1B) dopamine receptor (DRD5, Homo sapiens, UniProt P21918) | – | – | – | Ki | > 10 µM
COCCNCC(O)Cn1c2ccc(Cl)cc2c2cc(Cl)ccc21 (centres unmarked) | Trypanosoma cruzi | – | Tulahuen C4 LacZ | – | IC50 | 3.9 µM
C#CCCCCCC(=O)N(C)[C@H](C(=O)N(C)[C@H](C(=O)N(C)[C@H](C(=O)N(C)[C@@H](C)C(=O)N(C)[C@@H](Cc1ccccc1)C(=O)N(C)C)C(C)C)C(C)C)C(C)C | Leishmania donovani | – | – | – | IC50 | 5.9 µM
CCOc1cccc(C(=O)Nc2ccc(-c3nc4ccccc4[nH]3)cc2)c1 | Trypanosoma cruzi | – | Tulahuen C4 LacZ | – | IC50 | > 32 µM
C#CCCCCC(=O)N(C)[C@H](C(=O)N(C)[C@H](C(=O)N(C)[C@H](C(=O)N(C)[C@@H](C)C(=O)N(C)[C@@H](Cc1ccccc1)C(=O)OC)C(C)C)C(C)C)C(C)C | Leishmania donovani | – | – | – | IC50 | > 14 µM
Cc1cc2nc(N)[nH]c2cc1C | Pseudomonas aeruginosa | biofilm growth, inhibitor | wild type | 24 h | IC50 | 4 µM
